Results gathered from unrelated publications.
Compare with care: the assays were run in different laboratories. “And” joins repeats or separate records; there may be more than shown. Numbers after ± are the reported error.

SMILES	target	assay	system	setting	scale	quantity	result
C=C(C)Cn1c(SCC(=O)c2nccs2)nc2sc3c(c2c1=O)CCCC3	Smoothened	Gli luciferase reporter, agonist	TM3-Gli-Luc	together with: SAG 20 nM		EC50	> 20 µM
FC(F)(F)CN1CC(n2cc(Oc3ccn4nc(Cl)cc4n3)cn2)C1	ELOVL1	refers to: C26/C22 sphingomyelin ratio	patient fibroblasts			IC50	~50 nM
CSc1cc(Oc2ccnc3[nH]c(=O)cnc23)ccc1NC(=O)Nc1cc(C(C)(C)C)nn1-c1ccccc1	Met	reverse-phase protein array	patient-derived cell	1 µM, 4 h	baseline: DMSO	phospho-Met/total Met ratio	0.78
Cn1c(=O)oc2ccc(-c3ccc(C[C@@H](C#N)NC(=O)[C@@H]4CNCCCO4)cc3)cc21	neutrophil elastase human	enzyme activity, PK-PD model	human, whole blood	oral, together with: zymosan		IC50	215 nM
CC(=O)N(C)[C@H]1CCN(C(=O)c2cnc3c(c2)C[C@](C)(c2ccc(F)cc2)N3)C1	vanin activity	refers to: creatinine-normalised pantetheine	human, urine	60 mg, 144 h after first dose, median	baseline: baseline	urinary pantetheine	2680%
CNS(=O)(=O)Nc1nccc(Cc2c(C)c3ccc(Oc4ncccn4)cc3oc2=O)c1F	RAF kinases	RAF-mediated MEK1 phosphorylation, TR-FRET		concentration not given		inhibition	inhibited
CC[C@H](C)[C@H](NC(=O)[C@H](CC(=O)O)NC(=O)[C@H](CCC(=O)O)NC(=O)[C@@H](N)CC(N)=O)C(=O)N[C@@H](CC(=O)O)C(=O)N[C@@H](CCC(N)=O)C(=O)N[C@@H](CCSC)C(=O)N[C@@H](Cc1ccccc1)C(=O)N[C@@H](CO)C(=O)N[C@H](C(=O)N[C@@H](CC(C)C)C(=O)N[C@@H](CC(C)C)C(=O)NCC(=O)N[C@@H](CCC(=O)O)C(=O)N[C@@]1(C)CCCC=CCCC[C@@](C)(C(=O)N[C@@H](CCC(N)=O)C(=O)N[C@@H](CO)C(=O)O)NC(=O)[C@H](CC(C)C)NC(=O)[C@H](CC(C)C)NC(=O)[C@H](CC(=O)O)NC1=O)[C@@H](C)O	integrin αIIbβ3 THD-W359A	integrin activation, PAC-1 binding flow cytometry	CHO-A5 expressing αIIbβ3 THD-W359A	up to 100 µM, 30 min, 37 °C		inhibition	no inhibition
O=c1c2ccccc2[se]n1-c1ccccc1	human AA3			20 µM		inhibition	inhibited
CCCCCCCC(=O)OC[C@H](COP(=O)(O)O[C@@H]1[C@H](O)[C@H](O)[C@@H](OP(=O)(O)O)[C@H](OP(=O)(O)O)[C@H]1O)OC(=O)CCCCCCC	Kv7.2/Kv7.3(EEE) mutant channel	channel open probability, activator, fitted PIP2 binding model		model 2	baseline: channel without bound PIP2	efficacy factor E2	0.001
O=C(NN=Cc1ccc(C[n+]2ccccc2)cc1)c1ccc2ccc3ccc(C(=O)NN=Cc4ccc(C[n+]5ccccc5)cc4)nc3c2n1.[Br-].[Br-]	telomeric antiparallel G-quadruplex DNA	UV melting		3 µM, 10 mM potassium, together with: DNA 3 µM		delta Tm	1.4 °C
CN(C)CCCn1c(=O)c2cc(Br)c3c(=O)n(CCCN(C)C)c(=O)c4c5[nH]c6ccccc6[nH]c5c(c1=O)c2c34	HIV-1 LTR-IV G-quadruplex	FRET melting		0.25 µM, K+ 100 mM		ΔTm	10.3 ± 1.1 °C
C=C(C)Cn1c(SCC(=O)c2cccs2)nc2ccccc2c1=O	Smoothened	Gli luciferase reporter, agonist	TM3-Gli-Luc	together with: SAG 20 nM		EC50	> 20 µM
CC(=O)N[C@H](C(=O)N1C[C@H](O)C[C@H]1C(=O)NCc1ccc(-c2scnc2C)cc1)C(C)(C)SCCCCCCNC(=O)C[C@@H]1N=C(c2ccc(Cl)cc2)c2c(sc(C)c2C)-n2c(C)nnc21	AHNAK (human)	TMT proteomics	HeLa	3 µM, 24 h	baseline: DMSO	relative protein abundance	1
C=C(C)Cn1c(SCC(=O)c2ccccn2)nc2sc3c(c2c1=O)CCCC3	Smoothened	Gli luciferase reporter, agonist	TM3-Gli-Luc	together with: SAG 20 nM		EC50	> 20 µM
CC(C)C[C@@H]1NC(=O)[C@H](C(C)C)NC(=O)CNC(=O)[C@H](CC(N)=O)NC(=O)[C@@H]2CCCN2C(=O)[C@H](Cc2ccc(O)cc2)NC(=O)[C@H](CCCNC(=N)N)NC(=O)[C@H](Cc2ccccc2)NC(=O)[C@@H](NC(=O)[C@H](CCCCN)NC(=O)[C@H](C)NC(=O)[C@H](CO)NC(=O)[C@H](C)NC(=O)[C@@H](N)Cc2ccc(O)cc2)CSSC[C@@H](C(=O)N[C@H](C(N)=O)[C@@H](C)O)NC(=O)[C@H](C)NC1=O	fucoidan	binding, isothermal titration calorimetry		pH 7.0, 25 °C		-ΔG	8.68 kcal/mol
O=S(=O)(NCCNC/C=C/c1ccc(Br)cc1)c1cccc2cnccc12	PKA	inhibitor	mouse zygotes	20 µM, injection, hCG, 24 h post, early embryonic development		embryos arrested at zygote stage	100%

SMILES	target	assay	system	setting	scale	quantity	result
C[n+]1cccc2cc(C=NNC(=O)c3ccc4ccc5ccc(C(=O)NN=Cc6ccc7c(ccc[n+]7C)c6)nc5c4n3)ccc21.[I-].[I-]	MYC promoter parallel G-quadruplex DNA	UV melting		3 µM, 10 mM potassium, together with: DNA 3 µM		delta Tm	6.7 °C
CC(C)Cn1c(=O)n(C)c(=O)c2[nH]cnc21	anti-cAMP antibody	binding, cAMP EIA, acetylated				EC50	> 1000 µM
CN(C)CCCn1c(=O)c2cc(Br)c3c(=O)n(CCCN(C)C)c(=O)c4c5[nH]c6ncccc6[nH]c5c(c1=O)c2c34	HIV-1 LTR-IV G-quadruplex	FRET melting		0.25 µM, K+ 100 mM		ΔTm	3 ± 0.1 °C
c1coc(-c2n[nH]cc2-c2ccnc3ccccc23)c1	CDC5 (Candida albicans)	kinase binding, MIB/MS competition	Candida albicans lysate	10 µM	baseline: DMSO	log2 fold change	0.03
CC1=C(C#N)[C@@H](c2ccc(C#N)cc2S(C)(=O)=O)N(C)C(=O)N1c1cccc(C(F)(F)F)c1	chymotrypsin					IC50	> 30000 nM
CN(C)CCCn1c(=O)c2ccc3c(=O)n(CCCN(C)C)c(=O)c4c5[nH]c6cc([N+](=O)[O-])ccc6[nH]c5c(c1=O)c2c34	HIV-1 LTR-IV G-quadruplex	FRET melting		0.25 µM, K+ 100 mM		ΔTm	12 ± 1.7 °C
COC(=O)CCc1ccc(C(=O)N/N=C/C(Br)=C/c2ccccc2)cc1	human Hsp90α-p23 interaction	split luciferase reporter	HEK293T	30 µM, 24 h		inhibition	16%
COc1ccc(CNc2c(CO)cnc3c(C4CC4)cc(C#N)cc23)cn1	PDE7	inhibitor				IC50	> 10000 nM
CN(C)CCCn1c(=O)c2ccc3c(=O)n(CCCN(C)C)c(=O)c4c5[nH]c6ccccc6[nH]c5c(c1=O)c2c34	HIV-1 LTR-IV G-quadruplex	FRET melting		0.25 µM, K+ 100 mM		ΔTm	11.7 ± 0.6 °C
Cn1c(=O)c2[nH]cnc2n(C)c1=O	anti-cAMP antibody	binding, cAMP EIA, acetylated				EC50	> 1000 µM
O=C(Nc1ccccc1OS(=O)(=O)c1ccc(F)cc1)c1ccc2ncccc2c1	P2Y1, P2Y2, P2Y4, P2Y6, P2X2, P2X4 receptors			100 µM		activity at other P2 receptors	inactive
Cc1ccc(C(=O)Nc2ccc3ccccc3c2)o1	Kv7.1 potassium channel human	ion current, inhibitor, whole-cell patch clamp		10 µM		inhibition	10% and 8.36% and 12.8% and 4.8% and 3.6%
COc1ccccc1N1CCN(C(=O)c2cccc(S(=O)(=O)n3cncn3)c2)CC1	AKR1C1, AKR1C2, AKR1C4 (human)	enzyme activity, competitive ABPP	HEK-293T	concentration not given, 5-120 min		activity	inactive
CCN(CC)CCCC(C)Nc1cnc(C(=O)Nc2ccc(Cl)c3cccnc23)cn1 (centres unmarked)	LC3B	Western blot	human cells	72 h		lowest concentration raising LC3B	2.5 µM
CN(C)CCCn1c(=O)c2ccc3c(=O)n(CCCN(C)C)c(=O)c4c5[nH]c6cc(C(=O)O)ccc6[nH]c5c(c1=O)c2c34	HIV-1 LTR-IV G-quadruplex	FRET melting		0.25 µM, K+ 100 mM		ΔTm	6.3 ± 0.6 °C
Oc1ccccc1-c1n[nH]cc1-c1ccnc2ccccc12	orf19.4575 Candida albicans	kinase binding, MIB/MS competition	Candida albicans lysate	10 µM	baseline: DMSO	log2 fold change	0.17
